Published values from different studies.
A part holds a random share of what one study measured.

Series 1
Target: Interferon regulatory factor 5, full length, phosphomimetic (IRF5, Homo sapiens, UniProt Q13568-2, residues 1-514, K96S/S451D/S453D/S456D/S462D)
Method: protein-binding microarray
Form: double-stranded DNA, one strand shown
Sample: in vitro
Tested at: 250 nM
Notes: 60-bp whole probe
With: salmon DNA 0.4 mg/ml
Relative to: random background probes
Direction: higher = stronger binding
| Strand | log fluorescence |
| --- | --- |
| GCCTAGCACTTAGGTATCCTTTTTCTTTAGTGCTAGGTCTTGATTCGCTTGACGCTGCTG | 0.722 z-score |
| GCCTAGCACGACGGACTGGGCCTGGGGACGTGCTAGGTCTTGATTCGCTTGACGCTGCTG | -0.857 z-score |
| GCCTAGCACGTAGAACTGAGACTGGATTAGTGCTAGGTCTTGATTCGCTTGACGCTGCTG | -0.271 z-score |
| GCCTAGCACATGCTTCTGTATTCATGAAGGTGCTAGGTCTTGATTCGCTTGACGCTGCTG | 0.445 z-score |

Series 2
Target: RING finger protein unkempt homolog, zinc fingers 1-6, GST-SBP tag (UNK, Homo sapiens, UniProt Q9C0B0, residues 30-357)
Method: RNA Bind-n-Seq
Form: RNA
Sample: in vitro
Tested at: not given
Notes: RNA with constant flanks, human and mouse sites, ends assumed
Relative to: input RNA pool
Direction: higher = stronger binding
Shared flanks, not repeated: GGGAGUUCUACAGUCCGACGAUC … CAACAGAGGAUUGAGCAUCA
Residues (chain): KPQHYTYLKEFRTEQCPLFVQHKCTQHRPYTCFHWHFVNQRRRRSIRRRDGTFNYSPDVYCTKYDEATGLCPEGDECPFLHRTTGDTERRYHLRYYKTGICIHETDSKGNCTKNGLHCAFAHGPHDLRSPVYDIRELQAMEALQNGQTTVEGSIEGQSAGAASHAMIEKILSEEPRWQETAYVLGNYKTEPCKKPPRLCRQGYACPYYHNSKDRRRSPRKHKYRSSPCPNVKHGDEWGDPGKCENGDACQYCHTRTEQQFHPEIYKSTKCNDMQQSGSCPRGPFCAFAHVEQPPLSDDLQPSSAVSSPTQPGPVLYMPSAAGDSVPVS
| Strand | bound/input enrichment [ratio] |
| --- | --- |
| AACCACUUACUACCAGGCCUUUUUCUGUGUCCACUGGAGAGCUUGAGCUCACACUCAAAGAUCAGAGGACCUACAGAGAGGGCUCUUUGGUUUGAGGACCAUGGCUUACCUUUCCUGCCU | 0.0893 |
| GAUUCAAAUGAUGAAUCUGUUGACACCUUAUAACUCCCAUCUCCCUAUCUAUAUUUUUGUCUCUAAGAGAUCAAGUAAGAUACAUGUUGUUCAUAUUCAUAACAACUUAUUAGAGCUAUG | 0.41 |
| UCUUUAUACAGACUGAGGCUCAGUCUGCCUGCCCGUCUCUGGGGUGUUCCAUCUCAGCAUUAGGUCAGUUGGUUCUGUUGAGUGUCUUCAGGUCCACCUCCAGCUGGUGAUUAUUUCAGA | 0.0955 |
| AUUAUAUAUGAUCGUUUUUCUGAUCCUAAGUUUGUUGAGCAGUUAAUCACAUUUCUAUCUUUAGAAGACAGAAAAGGAAGAGAUAAGUUUAGUCCCCGGCGUUUCUGCCUCUUUAAGGGU | 0.192 |
| GGGAGCGCAGAGCGGCCUUUCCAGCAUGCAGCGGCUGCUCAGAGUAUAGAAAUAUCAAGAAAUAGGAGAGAAUUCAACCAUGGCCCCACGGAAGAGAGGCGGCCGGGGGAUUUCAUUUAU | 4.01 |
| GCCAGCCACUCGGAGCUAAUCCACAACCUCCGCAAGAAUGGAAUCAUCAAGACAGAUAAAGUAUUUGAAGUGAUGCUGGCUACAGACCGUUCCCACUAUGCAAAAUCUAACCCUUACAUG | 0.124 |

Series 3
Target: RNA binding protein fox-1 homolog 2, RRM domain, GST-SBP tag (RBFOX2, Homo sapiens, UniProt O43251-10, residues 100-194)
Method: RNA Bind-n-Seq
Form: RNA
Sample: in vitro
Tested at: 365 nM
Notes: natural RNA segment, single round, ends assumed
Relative to: no-protein control
Direction: higher = stronger binding
| Strand | RBNS enrichment (R) |
| --- | --- |
| GGGAGUUCUACAGUCCGACGAUCUAUUCCCGGGGUACCAAGCAGCUGCACAGUCGGUGCCUGGGAGGCACGUAGAGGCCCAGAGAGUCCCUGGGGGUUCUGCUCUGACCGUGUGGGUGGUGAUCCUUGUCAGGUGGAAUUCUCGGGUGCCAA | 0.919 |
| GGGAGUUCUACAGUCCGACGAUCAGCGACUGAAUCUGCCACUCUCAGAAUAAGUUCCUUGCAUUUAUUCCAAAUAAUCUCGUUUACUCUCACCUGUUUAUGCAAAUUGUAUAAGGUUUCUUAUGCCCAAGCUUUGGAAUUCUCGGGUGCCAA | 0.905 |
| GGGAGUUCUACAGUCCGACGAUCAAGGGGAUGUGAGGGCCUCCACUGAAGCAGGGAGGCAGCUGUGUAAUCCUAUGUCAGCUCUCUUAGGAAGCCCCAGUACUUAUAUUGGGCAUGCACUUGCCCUUAAAAACUGGAAUUCUCGGGUGCCAA | 0.503 |
| GGGAGUUCUACAGUCCGACGAUCGUUGAGAAUGUUAUUUGAAGAAUGCCUGUGAAGCCAGGUGUGGGUUCUACUCAGUGCCAUAGAUAGACUGAGUCUUCUCUCGUAGGUUACCAUUACAUAGUAAUUUUGAUUGGAAUUCUCGGGUGCCAA | 0.887 |

Further values, each from its own experiment
| Molecule | target | test | system | setting | how to read | quantity | result |
| --- | --- | --- | --- | --- | --- | --- | --- |
| PhoQ, residues 284 288 289 292 302 303 SSCCRF | PhoP, residues 12 14 15 18 19 TTLRV (Escherichia coli, UniProt P23836) | Sort-seq, item: YFP reporter | E. coli | PhoQ-PhoP variant library, with: 10 µM Mg2+ | relative to: high Mg2+ state, higher = stronger signaling | fold induction | 11.4 |

Excerpt of the above (series 3):
| Strand | RBNS enrichment (R) |
| --- | --- |
| GGGAGUUCUACAGUCCGACGAUCAGCGACUGAAUCUGCCACUCUCAGAAUAAGUUCCUUGCAUUUAUUCCAAAUAAUCUCGUUUACUCUCACCUGUUUAUGCAAAUUGUAUAAGGUUUCUUAUGCCCAAGCUUUGGAAUUCUCGGGUGCCAA | 0.905 |
| GGGAGUUCUACAGUCCGACGAUCUAUUCCCGGGGUACCAAGCAGCUGCACAGUCGGUGCCUGGGAGGCACGUAGAGGCCCAGAGAGUCCCUGGGGGUUCUGCUCUGACCGUGUGGGUGGUGAUCCUUGUCAGGUGGAAUUCUCGGGUGCCAA | 0.919 |
